Published values collected from several papers.
Numbered parts are unrelated; each lists some results of a single study. Numbers after ± are the reported error.

Set 1 — read-out: reporter gene (Gaussia luciferase); mode: inhibitor; tested at: 20 µM
Target: Replicase polyprotein 1ab, main protease (rep, Severe acute respiratory syndrome coronavirus 2, UniProt P0DTD1)
`CC1CNc2c(cccc2S(=O)(=O)N[C@@H](CCCNC(=N)N)C(=O)N2CC[C@@H](C)C[C@@H]2C(=O)O)C1` (some centres unmarked) gave an inhibition of 1.48%.
With `CNC(=O)[C@@H](NC(=O)[C@H](CCCc1ccccc1)[C@H](C)N(O)C=O)C(C)(C)C` the inhibition was 0.811%.
The inhibition of `O=c1c(-c2ccc(O)cc2)coc2c([C@@H]3O[C@H](CO[C@@H]4OC[C@@H](O)[C@H](O)[C@H]4O)[C@@H](O)[C@H](O)[C@H]3O)c(O)ccc12` is reported as -0.894%.

Single results of other studies
For `INITRFQTL`, “frequency of responding donors” read 20 (AIM; peptide, CD8+ T cells from PBMC, human donors; HLA-B*08:01 restricted, unit not given; relative to: positive over tested donors).
`CC[C@H](C)[C@H](NC(=O)[C@H](CC(C)C)NC(=O)[C@H](Cc1c[nH]c2ccccc12)NC(=O)[C@H](CCC(N)=O)NC(=O)[C@@H](NC(=O)[C@H](Cc1ccccc1)NC(=O)[C@H](C)NC(=O)[C@H](CCCCNC(=O)COCCOCCNC(=O)COCCOCCNC(=O)CC[C@H](NC(=O)CCCCCCCCCCCCCCCCCCC(=O)O)C(=O)O)NC(=O)[C@H](CCC(N)=O)NC(=O)[C@H](C)NC(=O)[C@@H](NC(=O)[C@H](CCCCN)NC(=O)[C@H](CC(=O)O)NC(=O)[C@H](CC(C)C)NC(=O)C(C)(C)NC(=O)[C@@H](NC(=O)[C@H](CO)NC(=O)[C@H](Cc1ccc(O)cc1)NC(=O)[C@H](CC(=O)O)NC(=O)[C@H](CO)NC(=O)[C@@H](NC(=O)[C@H](Cc1ccccc1)NC(=O)[C@@H](NC(=O)CNC(=O)[C@H](CCC(=O)O)NC(=O)C(C)(C)NC(=O)[C@@H](N)Cc1ccc(O)cc1)[C@@H](C)O)[C@@H](C)O)[C@@H](C)CC)[C@@H](C)CC)C(C)C)C(=O)N[C@@H](C)C(=O)NCC(=O)NCC(=O)N1CCC[C@H]1C(=O)N[C@@H](CO)C(=O)N[C@@H](CO)C(=O)NCC(=O)N[C@@H](C)C(=O)N1CCC[C@H]1C(=O)N1CCC[C@H]1C(=O)N1CCC[C@H]1C(=O)N[C@@H](CO)C(N)=O` gave a serum AST of 23 ± 6.5 U/L (healthy subjects, single ascending dose; 0.5 mg, baseline).
For `MSALNHTKK`, “frequency of responding donors” read 100 (AIM; peptide, CD8+ T cells from PBMC, human donors; HLA-A*30:01 restricted, unit not given; relative to: positive over tested donors).
`Cn1cnc(Cn2c(=O)[nH]/c(=N\c3cc4cn(C)nc4cc3Cl)n(Cc3cc(F)c(F)cc3F)c2=O)n1` — result for “any TEAE, moderate severity”: 0% (human, severe renal impairment; oral, 375 mg).
`Nc1ncnc2c([C@@H]3N[C@H](CO)[C@@H](O)[C@H]3O)c[nH]c12` has an infected cells of 10.5% (Marburg virus; viral replication, antibody staining; HeLa, Musoke; 0.4 µM, 12 h).

For quick reference, copied from above (set 1):
`CC1CNc2c(cccc2S(=O)(=O)N[C@@H](CCCNC(=N)N)C(=O)N2CC[C@@H](C)C[C@@H]2C(=O)O)C1` (some centres unmarked) gave an inhibition of 1.48%.
